Assay results gathered from unrelated publications.
A part holds a random share of what one study measured. “And” joins repeats or separate records; there may be more than shown.

Study 1
Compound: C[C@@H]1CN(c2ccc(-c3cc(C(=O)NCCOCCOCCOCCOCCNC(=O)/C=C/c4[nH]cc(C(=O)N[C@@H](CC(N)=O)c5ccc(F)c(Cl)c5)c4-c4ccc(Cl)cc4F)ccc3F)cc2NC(=O)c2c[nH]c(=O)cc2C(F)(F)F)C[C@H](C)N1C
Read-out: thermal unfolding
Method: differential scanning fluorimetry
Tested at: 5.5 µM
Reading: higher = more unfolded
DCAF1: DDB1- and CUL4-associated factor 1 (DCAF1, Homo sapiens, UniProt Q9Y4B6)
Sequence of UniProt Q9Y4B6 (whole entry, looked up): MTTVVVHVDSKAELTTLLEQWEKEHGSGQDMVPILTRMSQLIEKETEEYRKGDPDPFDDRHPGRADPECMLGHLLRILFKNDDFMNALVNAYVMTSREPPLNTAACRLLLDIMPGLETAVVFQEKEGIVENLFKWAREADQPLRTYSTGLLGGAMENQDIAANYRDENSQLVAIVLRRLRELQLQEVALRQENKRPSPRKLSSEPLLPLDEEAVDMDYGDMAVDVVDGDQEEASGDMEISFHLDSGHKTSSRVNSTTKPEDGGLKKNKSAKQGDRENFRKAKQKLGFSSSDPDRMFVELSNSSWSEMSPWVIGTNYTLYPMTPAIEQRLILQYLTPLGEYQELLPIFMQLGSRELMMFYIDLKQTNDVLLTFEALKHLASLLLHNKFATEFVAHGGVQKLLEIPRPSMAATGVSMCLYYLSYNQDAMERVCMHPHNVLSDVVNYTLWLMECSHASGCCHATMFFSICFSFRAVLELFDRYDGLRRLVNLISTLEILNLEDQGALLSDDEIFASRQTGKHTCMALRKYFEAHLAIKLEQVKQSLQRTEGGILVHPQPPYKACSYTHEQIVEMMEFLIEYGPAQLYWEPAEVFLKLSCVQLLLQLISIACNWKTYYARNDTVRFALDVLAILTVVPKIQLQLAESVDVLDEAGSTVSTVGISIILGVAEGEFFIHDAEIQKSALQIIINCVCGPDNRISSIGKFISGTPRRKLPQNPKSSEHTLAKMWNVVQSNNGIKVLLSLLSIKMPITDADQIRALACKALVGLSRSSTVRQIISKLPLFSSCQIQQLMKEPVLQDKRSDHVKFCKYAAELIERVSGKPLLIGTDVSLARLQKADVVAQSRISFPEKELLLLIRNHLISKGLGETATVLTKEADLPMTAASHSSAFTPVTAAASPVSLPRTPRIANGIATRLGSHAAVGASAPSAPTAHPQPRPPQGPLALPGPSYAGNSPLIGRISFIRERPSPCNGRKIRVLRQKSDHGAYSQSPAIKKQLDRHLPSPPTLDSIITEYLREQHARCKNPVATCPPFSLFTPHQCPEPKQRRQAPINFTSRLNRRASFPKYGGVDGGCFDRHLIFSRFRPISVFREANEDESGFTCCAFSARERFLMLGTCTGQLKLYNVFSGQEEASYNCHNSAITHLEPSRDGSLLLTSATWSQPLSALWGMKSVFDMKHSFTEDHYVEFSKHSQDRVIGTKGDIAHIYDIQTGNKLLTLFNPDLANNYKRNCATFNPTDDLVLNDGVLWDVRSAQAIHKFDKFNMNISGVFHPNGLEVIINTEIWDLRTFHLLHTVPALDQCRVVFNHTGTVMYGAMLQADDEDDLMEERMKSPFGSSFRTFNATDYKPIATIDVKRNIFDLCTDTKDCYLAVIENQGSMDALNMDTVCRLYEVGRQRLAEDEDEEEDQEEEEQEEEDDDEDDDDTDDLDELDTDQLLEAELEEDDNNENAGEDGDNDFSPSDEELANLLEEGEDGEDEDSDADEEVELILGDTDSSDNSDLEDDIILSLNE
WDR5: WD repeat-containing protein 5 (WDR5, Homo sapiens, UniProt P61964)
DCAF1; 45.8 °C — “SYPRO Orange fluorescence”: 13400 a.u.
WDR5; 93.61 °C — “SYPRO Orange fluorescence”: 46800 a.u.
For WDR5; 40.8 °C: “SYPRO Orange fluorescence” read 14000 a.u.
WDR5; 67.81 °C — “SYPRO Orange fluorescence”: 14300 a.u.
It gave 45500 a.u. for “SYPRO Orange fluorescence” (WDR5; 81.81 °C).
The “SYPRO Orange fluorescence” was 38500 a.u. (DCAF1; 86.41 °C).
The “SYPRO Orange fluorescence” was 12700 a.u. (DCAF1; 44.4 °C).
The “SYPRO Orange fluorescence” was 19100 a.u. (WDR5; 71.81 °C).
WDR5; 61.01 °C — “SYPRO Orange fluorescence”: 15400 a.u.
For WDR5; 82.61 °C: “SYPRO Orange fluorescence” read 47600 a.u.
The “SYPRO Orange fluorescence” was 8910 a.u. (DCAF1; 26.4 °C).

Study 2
Target: E3 ubiquitin-protein ligase NEDD4, HECT domain (Homo sapiens, UniProt P46934)
Read-out: enzyme activity
Mode: inhibitor
Method: Ub-TR-FRET
Medium: HECT domain
Tested at: 100 µM
Reading: higher = more chain formation
Residues (P46934 938-1319, limits assumed): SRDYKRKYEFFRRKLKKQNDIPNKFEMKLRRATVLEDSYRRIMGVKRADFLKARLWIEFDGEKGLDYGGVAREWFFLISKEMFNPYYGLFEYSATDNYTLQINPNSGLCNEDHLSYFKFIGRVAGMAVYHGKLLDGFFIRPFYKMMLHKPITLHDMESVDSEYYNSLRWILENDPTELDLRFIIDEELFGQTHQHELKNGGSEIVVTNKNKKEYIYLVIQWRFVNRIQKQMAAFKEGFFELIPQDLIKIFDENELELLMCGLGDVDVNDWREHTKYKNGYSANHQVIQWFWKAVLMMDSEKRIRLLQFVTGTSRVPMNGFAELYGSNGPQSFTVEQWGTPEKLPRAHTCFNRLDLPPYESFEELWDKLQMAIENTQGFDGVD
CCOC(=O)/C=C/CN(CC)CCCCN1c2ccccc2CCc2ccc(Cl)cc21.O=C(O)/C=C\C(=O)O — result for “ubiquitin chain formation AUC”: 11600 a.u. and 12000 a.u. and 13000 a.u. and 12200 a.u.
CNCCCN1c2ccccc2CCc2ccc(Cl)cc21: “ubiquitin chain formation AUC” 104000 a.u. and 31000 a.u. and 26200 a.u. and 109000 a.u. and 23800 a.u.
COC(=O)/C=C/C(=O)NCCCN1c2ccccc2CCc2ccc(Cl)cc21: “ubiquitin chain formation AUC” 142000 a.u. and 144000 a.u.
CCOC(=O)/C=C/CNCCCCN1c2cc(Cl)ccc2C(=O)N(C)c2ccccc21.O=C(O)/C=C\C(=O)O: “ubiquitin chain formation AUC” 7550 a.u. and 7940 a.u. and 7400 a.u.
Under “ubiquitin chain formation AUC”, CNC(=O)/C=C/CNCCCCN1c2ccccc2CCc2ccc(Cl)cc21.Cl is recorded as 9970 a.u. and 14000 a.u. and 11900 a.u. and 15500 a.u. and 9750 a.u. and 18000 a.u.
Under “ubiquitin chain formation AUC”, CCOC(=O)/C=C/CN(CCCCN1c2ccccc2CCc2ccc(Cl)cc21)C(C)C.O=C(O)/C=C\C(=O)O is recorded as 11500 a.u. and 11100 a.u. and 14800 a.u. and 11400 a.u. and 14600 a.u. and 15500 a.u.
For N#C/C=C/CNCCCCN1c2ccccc2CCc2ccc(Cl)cc21.O=C(O)/C=C\C(=O)O, “ubiquitin chain formation AUC” read 8890 a.u. and 10200 a.u. and 9540 a.u. and 8860 a.u. and 9320 a.u. and 9480 a.u.
For CNC(=O)/C=C/CNCCCN1c2ccccc2CCc2ccc(Cl)cc21.Cl, “ubiquitin chain formation AUC” read 53400 a.u. and 57000 a.u. and 51300 a.u.
Under “ubiquitin chain formation AUC”, Cl.NC(=O)/C=C/CNCCCN1c2ccccc2CCc2ccc(Cl)cc21 is recorded as 67600 a.u. and 71500 a.u. and 76000 a.u.
COC(=O)CCCNCCCN1c2ccccc2CCc2ccc(Cl)cc21.COC(=O)CCCNCCCN1c2ccccc2CCc2ccc(Cl)cc21.O=C(O)/C=C/C(=O)O — result for “ubiquitin chain formation AUC”: 76300 a.u. and 64200 a.u. and 79300 a.u.

Study 3
SMILES: CCN1/C(=C/C=C2\CCCC(/C=C/C3=[N+](CC)c4ccccc4C3(C)C)=C2NCCCCCCCCN2CCC(Nc3nc4ccccc4n3Cc3ccc(F)cc3)CC2)C(C)(C)c2ccccc21
Cell line: U-87 MG
Tested at: concentration not given
Reference: DMSO
item: NR4A3 mRNA — “log2 fold change”: 3.02.
item: VANGL1 mRNA — “log2 fold change”: -1.59.
item: BRSK1 mRNA — “log2 fold change”: 1.35.
For item: N4BP2 mRNA: “log2 fold change” read 0.912.
For item: CD55 mRNA: “log2 fold change” read 1.29.
item: FGF2 mRNA — “log2 fold change”: 1.66.
For item: STIL mRNA: “log2 fold change” read -1.79.
It gave -1 for “log2 fold change” (item: NCAPD3 mRNA).
For item: DBNDD1 mRNA: “log2 fold change” read -1.91.
It gave -1.13 for “log2 fold change” (item: CCDC9B mRNA).
item: C12orf29 mRNA — “log2 fold change”: 0.926.
For item: PACC1 mRNA: “log2 fold change” read 1.02.
The “log2 fold change” was 1.28 (item: HSPH1 mRNA).

Study 4
Structure (SMILES): Cc1ncsc1-c1ccc(C(CO)NC(=O)C2CC(O)CN2C(=O)C(C(C)C)n2cc(-c3ccc(COc4c(-c5c(C)c(F)cc6[nH]ncc56)c(C5CC5)cc5c(N6CC7CC6CN7)nc(OC6CCOCC6)nc45)cc3)nn2)cc1 (centres unmarked)
mouse, PK-59 xenograft; 1 mg/kg, day 4 — tumour volume: 465 mm3 and 390 mm3 and 504 mm3 and 469 mm3 and 427 mm3.
It gave 567 mm3 and 418 mm3 and 573 mm3 and 441 mm3 and 432 mm3 for tumour volume (mouse, PK-59 xenograft; 3 mg/kg, day 7).
mouse, lung LXFA sample B PDX; 10 mg/kg twice weekly, day 22 — tumour volume: 343 mm3 and 289 mm3 and 482 mm3 and 65.8 mm3 and 198 mm3 and 194 mm3 and 444 mm3 and 133 mm3.
For ASPC1 xenograft, mouse; 30 mg/kg once weekly, day 4: tumour volume read 185 mm3 and 156 mm3 and 178 mm3 and 154 mm3 and 176 mm3.
For ASPC1 xenograft, mouse; 30 mg/kg twice weekly, day 7: tumour volume read 219 mm3 and 179 mm3 and 139 mm3 and 165 mm3 and 140 mm3.
The tumour volume was 142 mm3 and 166 mm3 and 225 mm3 and 146 mm3 and 152 mm3 (PK-1 xenograft, mouse; 30 mg/kg twice weekly, day 0).
mouse, PK-59 xenograft; 30 mg/kg, day 7 — tumour volume: 237 mm3 and 281 mm3 and 184 mm3 and 290 mm3 and 198 mm3.
It gave 223 mm3 and 128 mm3 and 78.3 mm3 and 93.9 mm3 and 68.7 mm3 and 164 mm3 and 286 mm3 and 123 mm3 for tumour volume (mouse, lung LXFA sample A PDX; 10 mg/kg twice weekly, day 6).
The tumour volume was 188 mm3 and 200 mm3 and 187 mm3 and 192 mm3 and 245 mm3 (mouse, GP2d xenograft; 30 mg/kg twice weekly, day 0).
It gave 56.2 mm3 and 61 mm3 and 53.9 mm3 and 130 mm3 and 124 mm3 and 57.1 mm3 and 81.1 mm3 and 28.2 mm3 for tumour volume (mouse, lung LXFA sample B PDX; 30 mg/kg twice weekly, day 11).
